Results of several laboratories.
Each line is one published result; not all experiments were run side by side. Positions count from the first letter of the parent shown. Numbers after ± are the reported error.
T1: Rap1a without signal peptide (Serratia marcescens); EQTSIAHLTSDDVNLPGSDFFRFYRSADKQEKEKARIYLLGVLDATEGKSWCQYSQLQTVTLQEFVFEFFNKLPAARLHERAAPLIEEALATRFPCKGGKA
B1: Ssp1 (Serratia marcescens); chain MKPLYRQLKSSHYSSDYSSPGYLAAEAVYAEIGYELDTLLKQNPGYANTCAVRMSLALLKTGISFKGRLPIKKGAYKGKTIEPGAKLLADQLHRSSSFGKAKIFFNAPDAEKGIGNKKGVVFFNKITNYDGGHIDLIEPENSLLTCHSHCYFNCKEVWFWELS
P1: Cdh11 EC1-EC2 (Mus musculus); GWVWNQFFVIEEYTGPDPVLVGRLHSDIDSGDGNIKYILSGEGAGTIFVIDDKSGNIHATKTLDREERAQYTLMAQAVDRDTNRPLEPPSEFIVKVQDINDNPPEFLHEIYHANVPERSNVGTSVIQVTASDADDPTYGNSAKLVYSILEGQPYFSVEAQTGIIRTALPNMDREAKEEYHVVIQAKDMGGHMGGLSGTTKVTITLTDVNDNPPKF
Chain of UniProt P03692 (whole entry, looked up): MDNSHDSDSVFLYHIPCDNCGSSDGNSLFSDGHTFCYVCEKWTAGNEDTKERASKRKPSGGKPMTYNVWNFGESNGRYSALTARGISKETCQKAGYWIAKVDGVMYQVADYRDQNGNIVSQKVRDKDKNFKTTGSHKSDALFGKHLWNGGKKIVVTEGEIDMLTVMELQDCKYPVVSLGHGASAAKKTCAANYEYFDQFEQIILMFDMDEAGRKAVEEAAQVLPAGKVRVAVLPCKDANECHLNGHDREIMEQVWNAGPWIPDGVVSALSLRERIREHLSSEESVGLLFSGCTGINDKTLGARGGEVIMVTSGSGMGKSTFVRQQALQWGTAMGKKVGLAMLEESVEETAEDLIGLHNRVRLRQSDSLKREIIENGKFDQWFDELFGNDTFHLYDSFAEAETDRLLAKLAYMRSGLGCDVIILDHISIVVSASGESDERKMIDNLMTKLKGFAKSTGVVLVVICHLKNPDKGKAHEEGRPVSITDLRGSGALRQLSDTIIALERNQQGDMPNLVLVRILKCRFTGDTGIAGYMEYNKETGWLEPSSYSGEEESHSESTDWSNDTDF
Chain of UniProt O59646 (whole entry, unmodified, looked up): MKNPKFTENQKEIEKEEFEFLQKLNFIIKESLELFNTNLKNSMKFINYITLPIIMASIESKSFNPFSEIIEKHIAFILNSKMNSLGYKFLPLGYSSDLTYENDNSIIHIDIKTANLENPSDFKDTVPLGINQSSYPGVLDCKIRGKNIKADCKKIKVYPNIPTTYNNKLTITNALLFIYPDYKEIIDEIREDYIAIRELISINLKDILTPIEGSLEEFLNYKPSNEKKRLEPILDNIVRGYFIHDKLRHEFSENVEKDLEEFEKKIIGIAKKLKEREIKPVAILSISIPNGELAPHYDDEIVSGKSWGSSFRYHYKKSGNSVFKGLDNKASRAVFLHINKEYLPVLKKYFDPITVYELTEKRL

Molecule | tested on | assay | test system | setting | how to read | quantity | value
RNA polymerase II CTD 19-residue peptide, phosphoserine S2 (Homo sapiens) (sequence not shown) | RPRD1B CID (Homo sapiens) | ITC |  | read off a plot |  | Kd | 6800 nM
B1 (Ssp1) | T1, Rap1a without signal peptide (Serratia marcescens) | ITC |  | apparent, dimer, read off a plot |  | Kd | 8 nM
GACAGTGCCATCTCGGCGACAGT (dsDNA) | mwoIR full length assumed (Methanothermobacter wolfeii, UniProt O59646) | filter binding | double-stranded DNA, one strand shown | with: Ca2+ 10 mM |  | Kd | 0.00234 ± 0.00102 nM
CGTAATCTGCAGGCATGGTCAATTT (ssDNA) | gene 4 protein RNA polymerase domain, 64-271 (Escherichia phage T7, UniProt P03692) | SPR | single-stranded DNA | with: ATP 0.2 mM, CTP 0.2 mM |  | binding | no binding
GACAGTGCTATCTCAGCGACAGT (dsDNA) | mwoIR full length assumed S310R (Methanothermobacter wolfeii, UniProt O59646) | filter binding | double-stranded DNA, one strand shown | with: Ca2+ 10 mM |  | Kd | 26.2 ± 2.7 nM
P1 W4A | cadherin-11 adhesive fragment (Mus musculus) | SPR |  | read off a plot, with: Ca2+ | higher = more binding | SPR response | 10 RU

Excerpt of the above:
Molecule | tested on | assay | test system | setting | how to read | quantity | value
RNA polymerase II CTD 19-residue peptide, phosphoserine S2 (Homo sapiens) (sequence not shown) | RPRD1B CID (Homo sapiens) | ITC |  | read off a plot |  | Kd | 6800 nM
